Published values collected from several papers.
Parts stem from different laboratories: compare values within a part only.
Sequence of UniProt P51451 (whole entry, looked up): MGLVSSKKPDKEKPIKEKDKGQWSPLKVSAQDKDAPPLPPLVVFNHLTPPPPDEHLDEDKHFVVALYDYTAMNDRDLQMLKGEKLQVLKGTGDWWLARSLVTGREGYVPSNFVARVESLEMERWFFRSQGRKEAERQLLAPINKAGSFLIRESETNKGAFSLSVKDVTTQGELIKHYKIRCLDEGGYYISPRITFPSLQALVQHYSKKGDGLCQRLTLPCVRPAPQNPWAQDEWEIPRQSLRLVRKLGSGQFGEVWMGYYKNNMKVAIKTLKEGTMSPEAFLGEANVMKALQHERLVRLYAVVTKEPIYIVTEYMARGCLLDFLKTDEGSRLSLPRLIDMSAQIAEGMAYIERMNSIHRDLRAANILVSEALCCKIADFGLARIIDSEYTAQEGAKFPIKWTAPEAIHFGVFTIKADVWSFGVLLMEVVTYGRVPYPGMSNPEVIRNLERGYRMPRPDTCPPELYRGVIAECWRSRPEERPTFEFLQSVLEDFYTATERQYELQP
Sequence of UniProt Q13131 (whole entry, looked up): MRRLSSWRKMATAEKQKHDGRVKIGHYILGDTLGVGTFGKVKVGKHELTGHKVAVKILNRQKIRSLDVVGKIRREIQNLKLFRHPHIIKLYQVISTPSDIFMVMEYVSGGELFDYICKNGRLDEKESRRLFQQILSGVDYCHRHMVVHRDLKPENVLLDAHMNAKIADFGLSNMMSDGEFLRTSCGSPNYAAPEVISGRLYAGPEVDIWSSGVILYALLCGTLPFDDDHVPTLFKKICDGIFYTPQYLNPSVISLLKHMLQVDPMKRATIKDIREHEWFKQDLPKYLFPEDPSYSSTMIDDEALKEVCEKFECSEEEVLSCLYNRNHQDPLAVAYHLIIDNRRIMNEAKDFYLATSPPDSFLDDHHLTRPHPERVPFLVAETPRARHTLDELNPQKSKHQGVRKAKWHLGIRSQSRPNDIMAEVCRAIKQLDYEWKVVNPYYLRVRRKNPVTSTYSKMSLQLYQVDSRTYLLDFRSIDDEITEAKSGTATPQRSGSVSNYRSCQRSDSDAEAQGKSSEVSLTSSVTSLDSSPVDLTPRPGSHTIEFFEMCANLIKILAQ
Sequence of UniProt P54764 (whole entry, looked up): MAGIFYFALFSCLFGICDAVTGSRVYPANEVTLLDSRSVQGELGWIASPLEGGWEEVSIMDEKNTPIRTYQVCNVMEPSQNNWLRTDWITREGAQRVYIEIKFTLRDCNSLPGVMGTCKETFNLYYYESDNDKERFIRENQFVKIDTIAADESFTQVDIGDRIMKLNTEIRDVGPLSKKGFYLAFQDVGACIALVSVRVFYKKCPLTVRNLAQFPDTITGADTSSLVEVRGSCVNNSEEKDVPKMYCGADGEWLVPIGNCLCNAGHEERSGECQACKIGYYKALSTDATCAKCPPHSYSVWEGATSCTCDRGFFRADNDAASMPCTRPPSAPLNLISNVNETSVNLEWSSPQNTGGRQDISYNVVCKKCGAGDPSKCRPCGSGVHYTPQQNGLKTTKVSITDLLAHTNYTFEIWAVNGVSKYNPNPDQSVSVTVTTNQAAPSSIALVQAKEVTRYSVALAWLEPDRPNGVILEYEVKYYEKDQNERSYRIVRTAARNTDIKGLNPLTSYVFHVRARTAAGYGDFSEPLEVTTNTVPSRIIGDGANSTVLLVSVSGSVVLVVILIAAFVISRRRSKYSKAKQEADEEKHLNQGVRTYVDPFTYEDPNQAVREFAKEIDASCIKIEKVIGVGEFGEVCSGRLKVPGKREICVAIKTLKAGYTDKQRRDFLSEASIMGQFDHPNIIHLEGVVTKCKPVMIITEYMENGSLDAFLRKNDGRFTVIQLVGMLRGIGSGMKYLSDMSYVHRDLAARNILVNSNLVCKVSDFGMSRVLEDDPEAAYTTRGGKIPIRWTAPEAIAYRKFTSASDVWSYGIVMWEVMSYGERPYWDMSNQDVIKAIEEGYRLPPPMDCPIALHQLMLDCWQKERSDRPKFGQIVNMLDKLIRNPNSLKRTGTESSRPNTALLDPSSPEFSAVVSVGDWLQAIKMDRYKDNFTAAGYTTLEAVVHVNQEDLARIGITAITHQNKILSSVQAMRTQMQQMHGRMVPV
Sequence of UniProt P30291 (whole entry, looked up): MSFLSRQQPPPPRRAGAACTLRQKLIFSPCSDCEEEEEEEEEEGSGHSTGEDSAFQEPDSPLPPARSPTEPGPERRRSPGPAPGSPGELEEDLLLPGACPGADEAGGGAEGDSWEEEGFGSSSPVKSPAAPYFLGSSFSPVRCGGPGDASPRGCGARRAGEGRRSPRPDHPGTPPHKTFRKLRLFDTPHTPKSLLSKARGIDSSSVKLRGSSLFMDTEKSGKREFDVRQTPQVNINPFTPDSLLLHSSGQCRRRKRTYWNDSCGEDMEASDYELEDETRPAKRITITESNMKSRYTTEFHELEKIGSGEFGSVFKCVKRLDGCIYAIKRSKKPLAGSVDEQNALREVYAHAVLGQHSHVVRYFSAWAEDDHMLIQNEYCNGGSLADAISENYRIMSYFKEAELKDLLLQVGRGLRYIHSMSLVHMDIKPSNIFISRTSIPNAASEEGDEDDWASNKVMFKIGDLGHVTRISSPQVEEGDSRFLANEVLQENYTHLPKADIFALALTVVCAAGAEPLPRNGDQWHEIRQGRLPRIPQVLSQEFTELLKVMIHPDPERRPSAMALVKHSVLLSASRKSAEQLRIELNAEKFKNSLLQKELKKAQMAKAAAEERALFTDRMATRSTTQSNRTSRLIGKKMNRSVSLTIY
Sequence of UniProt Q15835 (whole entry, looked up): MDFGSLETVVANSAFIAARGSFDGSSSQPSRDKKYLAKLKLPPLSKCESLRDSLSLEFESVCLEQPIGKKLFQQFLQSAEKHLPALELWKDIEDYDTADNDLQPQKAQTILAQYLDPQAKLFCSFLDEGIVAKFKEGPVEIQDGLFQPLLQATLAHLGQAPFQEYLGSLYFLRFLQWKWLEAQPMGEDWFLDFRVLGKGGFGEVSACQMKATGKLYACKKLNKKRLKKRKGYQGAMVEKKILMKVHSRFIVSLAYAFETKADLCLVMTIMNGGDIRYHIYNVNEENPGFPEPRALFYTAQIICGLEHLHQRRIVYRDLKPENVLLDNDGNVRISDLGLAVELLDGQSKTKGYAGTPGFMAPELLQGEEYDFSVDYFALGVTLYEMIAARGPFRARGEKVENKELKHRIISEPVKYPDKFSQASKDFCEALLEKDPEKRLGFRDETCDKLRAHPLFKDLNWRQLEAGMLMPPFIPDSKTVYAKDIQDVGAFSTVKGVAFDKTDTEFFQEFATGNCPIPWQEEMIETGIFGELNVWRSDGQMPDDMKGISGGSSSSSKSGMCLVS
Sequence of UniProt Q99683 (whole entry, looked up): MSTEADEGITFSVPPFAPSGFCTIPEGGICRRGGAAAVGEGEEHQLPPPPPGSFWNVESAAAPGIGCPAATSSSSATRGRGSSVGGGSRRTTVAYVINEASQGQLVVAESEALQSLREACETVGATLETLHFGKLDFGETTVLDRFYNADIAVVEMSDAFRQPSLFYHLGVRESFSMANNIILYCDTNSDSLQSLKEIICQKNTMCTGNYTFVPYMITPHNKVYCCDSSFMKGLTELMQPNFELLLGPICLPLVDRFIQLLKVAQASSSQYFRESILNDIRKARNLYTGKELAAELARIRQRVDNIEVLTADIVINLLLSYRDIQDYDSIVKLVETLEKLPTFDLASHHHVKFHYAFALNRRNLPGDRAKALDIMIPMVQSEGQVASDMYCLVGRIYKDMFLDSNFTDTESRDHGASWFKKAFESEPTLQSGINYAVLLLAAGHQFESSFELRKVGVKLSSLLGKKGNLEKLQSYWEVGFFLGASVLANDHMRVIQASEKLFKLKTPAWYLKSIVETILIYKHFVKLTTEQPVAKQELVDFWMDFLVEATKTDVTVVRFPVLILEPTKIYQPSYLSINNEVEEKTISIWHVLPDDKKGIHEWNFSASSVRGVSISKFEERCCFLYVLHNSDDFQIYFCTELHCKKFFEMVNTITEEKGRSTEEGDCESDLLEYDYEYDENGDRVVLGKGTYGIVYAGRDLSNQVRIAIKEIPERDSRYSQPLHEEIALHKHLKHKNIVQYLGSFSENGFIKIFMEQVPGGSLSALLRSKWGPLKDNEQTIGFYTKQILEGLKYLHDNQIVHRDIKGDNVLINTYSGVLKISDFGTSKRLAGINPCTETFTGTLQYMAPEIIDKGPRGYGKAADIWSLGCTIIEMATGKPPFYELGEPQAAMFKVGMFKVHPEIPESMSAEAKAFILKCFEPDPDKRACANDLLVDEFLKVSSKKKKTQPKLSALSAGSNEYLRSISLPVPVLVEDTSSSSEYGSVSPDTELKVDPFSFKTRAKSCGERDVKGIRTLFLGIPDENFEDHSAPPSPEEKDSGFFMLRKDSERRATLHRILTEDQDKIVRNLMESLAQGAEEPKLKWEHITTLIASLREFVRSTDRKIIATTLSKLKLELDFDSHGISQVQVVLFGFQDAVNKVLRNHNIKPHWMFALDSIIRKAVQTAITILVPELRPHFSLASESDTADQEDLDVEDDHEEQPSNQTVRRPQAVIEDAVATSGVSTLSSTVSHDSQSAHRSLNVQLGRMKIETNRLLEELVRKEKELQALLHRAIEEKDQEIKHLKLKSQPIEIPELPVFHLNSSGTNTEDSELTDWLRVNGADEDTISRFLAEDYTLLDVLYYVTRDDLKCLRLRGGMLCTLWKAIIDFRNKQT
Sequence of UniProt P45985 (whole entry, looked up): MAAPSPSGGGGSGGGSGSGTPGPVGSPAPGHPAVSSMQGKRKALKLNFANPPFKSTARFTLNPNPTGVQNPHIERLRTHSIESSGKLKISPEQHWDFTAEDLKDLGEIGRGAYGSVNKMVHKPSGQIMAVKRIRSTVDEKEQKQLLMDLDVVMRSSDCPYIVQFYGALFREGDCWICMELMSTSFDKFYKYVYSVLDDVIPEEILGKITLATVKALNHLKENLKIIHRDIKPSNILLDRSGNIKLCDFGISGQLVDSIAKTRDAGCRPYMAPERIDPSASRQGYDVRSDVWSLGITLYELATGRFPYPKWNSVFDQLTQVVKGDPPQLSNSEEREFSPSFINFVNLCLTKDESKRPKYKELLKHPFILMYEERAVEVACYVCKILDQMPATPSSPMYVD

Block 1
Structure (SMILES): CCCCc1c(-c2ccc(O)cc2)[nH]c2nccnc12
Read-out: enzyme activity
Action: inhibitor
Concentration: 0.5 µM
Relative to: control
target | remaining activity [%]
HIPK2 (Homo sapiens, UniProt Q9H2X6) | 88.5
EPHA4 (Homo sapiens, UniProt P54764) | 87.5
TSSK2 (Homo sapiens, UniProt Q96PF2) | 96.7
WNK3 (Homo sapiens, UniProt Q9BYP7) | 90.3
BLK (Homo sapiens, UniProt P51451) | 85
ABL1 (Homo sapiens, UniProt P00519) | 79
RPS6KA6 (Homo sapiens, UniProt Q9UK32) | 72.7

Block 2
SMILES: CC(C)n1cnc(-c2ccc(F)cc2)c1-c1ncc(C(=O)Nc2ccc(N3CCN(C)CC3)cc2)[nH]1
Method: phase 2a trial
Host: idiopathic pulmonary fibrosis patients
conditions | patients with gastritis
30 mg once daily, adverse event grade 5 | 0%
60 mg once daily, adverse event grade 4 | 0%
30 mg once daily, adverse event grade 1 | 0%
dose not given, grade 2, arms pooled | 1%
dose not given, adverse event grade 3, all dose arms pooled | 0%
dose not given, adverse event grade 1, all dose arms pooled | 0%
30 mg once daily, adverse event grade 2 | 0%

Block 3
Compound: CCCCN(CCCC)C(=O)CN1C[C@@H](c2cc(OC)c3c(c2)OCO3)[C@H](C(=O)O)[C@H]1CC(C)(C)CCC
Read-out: cell-free assay
Method: competition with immobilised ligand
Concentration: 1 µM
target | remaining binding
BLK (Homo sapiens, UniProt P51451) | 100%
MAP2K4 (Homo sapiens, UniProt P45985) | 93.3%
GRK1 (Homo sapiens, UniProt Q15835) | 100%
CSNK1D (Homo sapiens, UniProt P48730) | 98.9%
EGFR (Homo sapiens, UniProt P00533, del752-759) | 100%
IGF1R (Homo sapiens, UniProt P08069) | 97%
EPHA1 (Homo sapiens, UniProt P21709) | 85.5%
MAP3K5 (Homo sapiens, UniProt Q99683) | 100%
WEE1 (Homo sapiens, UniProt P30291) | 84.8%
MAP2K3 (Homo sapiens, UniProt P46734) | 89.5%
MELK (Homo sapiens, UniProt Q14680) | 100%
Tyrosine-protein kinase ABL1, phosphorylated (ABL1, Homo sapiens, UniProt P00519, T315I) | 89.2%
MET (Homo sapiens, UniProt P08581) | 100%
SIK3 (Homo sapiens, UniProt Q9Y2K2) | 74.8%
PRKAA1 (Homo sapiens, UniProt Q13131) | 96.7%
ROS1 (Homo sapiens, UniProt P08922) | 100%

Block 4
Cell line: A-375
Concentration: 100 µM
Time: 18 h
SMILES | viability [%]
CS(=O)(=O)c1ccc(C2=C(c3ccccc3)C(=O)OC2)cc1 | 98.5
C[C@H](N)[C@H](O)c1cccc(O)c1 | 81.9
O=c1oc2ccccc2c(O)c1Cc1c(O)c2ccccc2oc1=O | 47
CC(C)(C)CC(C)(C)c1ccc(O)c(Cc2ccc(Cl)cc2Cl)c1 | 8.56
COc1cc(Cc2cnc(N)nc2N)cc(OC)c1OC | 107
CS(=O)(=O)c1ccc([C@@H](O)[C@@H](CO)NC(=O)C(Cl)Cl)cc1 | 105
C#C[C@]1(O)CC[C@H]2[C@@H]3CCC4=Cc5oncc5C[C@]4(C)[C@H]3CC[C@@]21C | 6.98
CNC(=O)c1cnn(-c2nc(N)c3ncn([C@@H]4O[C@H](CO)[C@@H](O)[C@H]4O)c3n2)c1 | 106
